Published values of several laboratories.
Numbered parts are unrelated; each lists some results of a single study.

Sample 1
Target: Prothrombin, mature alpha-thrombin (F2, Homo sapiens, UniProt P00734)
Method: aptamer microarray, sandwich
Molecule type: DNA with 2'F-ANA
Medium: in vitro
Concentration: 200 nM
Notes: whole 15-mer aptamer, many near background
Added: Cy3 exosite-II aptamer, 400 nM
Reading: higher = stronger binding
`GGTTGGTGTGGTTGG (2'F-ANA at 2 3 4 6 8 9 10 11 12 13 15)` — result for “mean fluorescence intensity”: 186 a.u.
For `GGTTGGTGTGGTTGG (2'F-ANA at 5 7 9 11 12 13)`, “mean fluorescence intensity” read 95.1 a.u.
`GGTTGGTGTGGTTGG (2'F-ANA at 1 2 4 8 9 10 12 14)`: “mean fluorescence intensity” 52.9 a.u.
`GGTTGGTGTGGTTGG (2'F-ANA at 1 2 3 4 5 11 12 14 15)` — result for “mean fluorescence intensity”: 43.2 a.u.

Sample 2
Target: Interferon regulatory factor 3, full length, phosphomimetic (IRF3, Homo sapiens, UniProt Q14653, residues 1-427, S386D/S396D/S398D/S402D/T404D/S405D)
Method: protein-binding microarray
Molecule type: double-stranded DNA, one strand shown
Medium: in vitro
Concentration: 2540 nM top
Notes: 60-bp whole probe
Added: salmon DNA 0.4 mg/ml
Reference: random background probes
Reading: higher = stronger binding
All sequences stand within: GCCTAGCAC … GTCTTGATTCGCTTGACGCTGCTG
Residues (chain): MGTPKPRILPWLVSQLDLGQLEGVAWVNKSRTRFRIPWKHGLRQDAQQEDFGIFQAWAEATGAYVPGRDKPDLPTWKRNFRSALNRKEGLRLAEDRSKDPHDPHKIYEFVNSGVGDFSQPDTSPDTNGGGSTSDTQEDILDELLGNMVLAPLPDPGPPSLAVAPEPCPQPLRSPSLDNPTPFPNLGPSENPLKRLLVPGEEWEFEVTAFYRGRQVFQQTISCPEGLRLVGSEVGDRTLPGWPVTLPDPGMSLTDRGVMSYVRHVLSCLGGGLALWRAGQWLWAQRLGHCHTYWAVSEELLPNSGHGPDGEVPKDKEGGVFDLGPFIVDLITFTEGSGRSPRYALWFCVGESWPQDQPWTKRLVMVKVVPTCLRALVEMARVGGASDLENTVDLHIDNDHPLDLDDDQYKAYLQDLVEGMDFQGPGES
`TTAGGACTGGACACTGAGTTAGTGCTA`: “fitted relative affinity” -0.653 z-score.
`TTAGGCATCGGTCTCGGTTAGTGCTAG`: “fitted relative affinity” -0.0184 z-score.
Under “fitted relative affinity”, `TTAGGTTTCGGGAATGGGTTAGTGCTA` is recorded as 3.21 z-score.
`GACGGTATCGACTTTCGTGACGTGCTA` — result for “fitted relative affinity”: 1.01 z-score.
Under “fitted relative affinity”, `TTAGGACAGGGACTGGGTTAGTGCTAG` is recorded as -0.821 z-score.

Sample 3
Target: Histone acetyltransferase KAT6A, both winged helices, GST fusion (KAT6A, Homo sapiens, UniProt Q92794, residues 1-181)
Method: protein binding microarray
Molecule type: double-stranded DNA, one strand shown
Medium: in vitro
Concentration: not given
Notes: 8-mer, flanks averaged, mean of 2 arrays, mostly near background
Reference: not given
Reading: higher = stronger binding
Construct (chain): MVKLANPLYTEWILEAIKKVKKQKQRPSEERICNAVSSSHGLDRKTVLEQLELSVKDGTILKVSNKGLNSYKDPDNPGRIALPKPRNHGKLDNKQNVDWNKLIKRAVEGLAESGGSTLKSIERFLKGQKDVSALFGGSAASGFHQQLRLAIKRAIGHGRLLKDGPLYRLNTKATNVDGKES
With `CATAGACC` the E-score was -0.0104.
For `AAGACGGC`, the E-score was 0.16.
For `CGATAGCG`, the E-score was 0.228.
For `CTAGTGAG`, the E-score was -0.114.

Single results of other studies
`PhoQ, residues 284 288 289 292 302 303 ASSHFY` gave a fold induction of 18.2 (PhoP, residues 12 14 15 18 19 LWHVM (Escherichia coli, UniProt P23836); Sort-seq, item: YFP reporter; E. coli; PhoQ-PhoP variant library, added: 10 µM Mg2+; reference: high Mg2+ state, higher = stronger signaling).

Excerpt of the above (sample 1):
`GGTTGGTGTGGTTGG (2'F-ANA at 1 2 3 4 5 11 12 14 15)` — result for “mean fluorescence intensity”: 43.2 a.u.
